Results collected from several papers.
Each line is one published result; not all experiments were run side by side. Numbers after ± are the reported error.

N=C(N)NCCC[C@@H]1NC(=O)[C@H](CCCCNC(=O)CCOCCOCCOCCOCCNC(=O)CC[C@H](NC(=O)CCOCCOCCOCCOCCNC(=O)CC[C@H](NC(=O)CN2CCN(CC(=O)O)CCN(CC(=O)O)CCN(CC(=O)O)CC2)C(=O)NCCOCCOCCOCCOCCC(=O)N[C@@H](CCC(=O)NCCOCCOCCOCCOCCC(=O)NCCCC[C@@H]2NC(=O)[C@@H](Cc3ccccc3)NC(=O)[C@H](CC(=O)O)NC(=O)CNC(=O)[C@H](CCCNC(=N)N)NC2=O)C(=O)NCCOCCOCCOCCOCCC(=O)NCCCC[C@@H]2NC(=O)[C@@H](Cc3ccccc3)NC(=O)[C@H](CC(=O)O)NC(=O)CNC(=O)[C@H](CCCNC(=N)N)NC2=O)C(=O)NCCOCCOCCOCCOCCC(=O)NCCCC[C@@H]2NC(=O)[C@@H](Cc3ccccc3)NC(=O)[C@H](CC(=O)O)NC(=O)CNC(=O)[C@H](CCCNC(=N)N)NC2=O)NC(=O)[C@@H](Cc2ccccc2)NC(=O)[C@H](CC(=O)O)NC(=O)CNC1=O [indium-111 labelled]
tissue uptake (female athymic nude mice, muscle; intravenous, 3 µCi, 1 h, U-87 MG glioma xenograft): 1.04 ± 0.2 %ID/g

CSCC[C@H](NC(=O)[C@H](CC(C)C)NC(=O)[C@H](Cc1c[nH]cn1)NC(=O)CNC(=O)[C@@H](NC(=O)[C@H](C)NC(=O)[C@H](Cc1c[nH]c2ccccc12)NC(=O)[C@H](CCC(N)=O)NC(=O)CCCCCCCNC(=O)CCC(=O)Nc1ccc(CNC23CNCCNCC(N)(CNCCNC2)CNCCNC3)cc1)C(C)C)C(N)=O [copper-64 labelled]
tissue uptake (female SCID mice, PC-3 xenograft, spleen; intravenous, 0.6 MBq, 1 h): 1.23 ± 0.186 %ID/g

N=C(N)NCCC[C@@H]1NC(=O)[C@H](CCCCNC(=O)CC[C@H](NC(=O)CCOCCOCCOCCOCCNC(=O)CC[C@H](NC(=O)CN2CCN(CC(=O)O)CCN(CC(=O)O)CCN(CC(=O)O)CC2)C(=O)NCCOCCOCCOCCOCCC(=O)N[C@@H](CCC(=O)NCCCC[C@@H]2NC(=O)[C@@H](Cc3ccccc3)NC(=O)[C@H](CC(=O)O)NC(=O)CNC(=O)[C@H](CCCNC(=N)N)NC2=O)C(=O)NCCCC[C@@H]2NC(=O)[C@@H](Cc3ccccc3)NC(=O)[C@H](CC(=O)O)NC(=O)CNC(=O)[C@H](CCCNC(=N)N)NC2=O)C(=O)NCCCC[C@@H]2NC(=O)[C@@H](Cc3ccccc3)NC(=O)[C@H](CC(=O)O)NC(=O)CNC(=O)[C@H](CCCNC(=N)N)NC2=O)NC(=O)[C@@H](Cc2ccccc2)NC(=O)[C@H](CC(=O)O)NC(=O)CNC1=O [indium-111 labelled]
tissue uptake (female athymic nude mice, lungs; intravenous, 3 µCi, 72 h, U-87 MG glioma xenograft): 0.33 ± 0.03 %ID/g

CCCC[C@H](NC(=O)CCCCCCCNC(=O)c1ccc(NN)nc1)C(=O)N[C@H]1CC(=O)NCCCC[C@@H](C(N)=O)NC(=O)[C@H](Cc2c[nH]c3ccccc23)NC(=O)[C@H](CCCNC(=N)N)NC(=O)[C@@H](Cc2ccccc2)NC(=O)[C@H](Cc2c[nH]cn2)NC1=O [technetium-99m labelled]
tissue uptake (C57 mouse, B16/F1 melanoma, urine; intravenous, 0.037 MBq, 24 h): 96.8 ± 1.17 %ID

N=C(N)NCCC[C@@H]1NC(=O)[C@H](CCCCNC(=O)CNC(=O)CNC(=O)CNC(=O)CC[C@H](NC(=O)c2ccc(NN=Cc3ccccc3S(=O)(=O)O)nc2)C(=O)NCC(=O)NCC(=O)NCC(=O)NCCCC[C@@H]2NC(=O)[C@@H](Cc3ccccc3)NC(=O)[C@H](CC(=O)O)NC(=O)CNC(=O)[C@H](CCCNC(=N)N)NC2=O)NC(=O)[C@@H](Cc2ccccc2)NC(=O)[C@H](CC(=O)O)NC(=O)CNC1=O [technetium-99m labelled]
tissue uptake (athymic nu/nu mouse, female, MDA-MB-435 xenograft, muscle; intravenous, 30 min): 3.13 ± 1.04 %ID/g

CCCC[C@H](NC(=O)CNC(=O)CNC(=O)c1ccc(NN)nc1)C(=O)N[C@H]1CC(=O)NCCCC[C@@H](C(N)=O)NC(=O)[C@H](Cc2c[nH]c3ccccc23)NC(=O)[C@H](CCCNC(=N)N)NC(=O)[C@@H](Cc2ccccc2)NC(=O)[C@H](Cc2c[nH]cn2)NC1=O [technetium-99m labelled]
tissue uptake (C57 mouse, B16/F1 melanoma-bearing, muscle; intravenous, 4 h): 0.04 ± 0.02 %ID/g

N=C(N)NCCC[C@@H]1NC(=O)[C@H](CC(=O)NC23CNCCNCC(N)(CNCCNC2)CNCCNC3)NC(=O)[C@@H](Cc2ccccc2)NC(=O)[C@H](CC(=O)O)NC(=O)CNC1=O [copper-64 labelled]
tissue uptake (Nu/Nu mouse, male, tumour-bearing, heart; intravenous, 10 µCi, 24 h): 0.26 ± 0.03 %ID/g

N=C(N)NCCC[C@@H]1NC(=O)[C@H](CCCCNC(=O)CNC(=O)CNC(=O)CNC(=O)CC[C@H](NC(=O)CCOCCOCCOCCOCCNC(=O)CC[C@H](NC(=O)CN2CCN(CC(=O)O)CCN(CC(=O)O)CCN(CC(=O)O)CC2)C(=O)NCCOCCOCCOCCOCCC(=O)N[C@@H](CCC(=O)NCC(=O)NCC(=O)NCC(=O)NCCCC[C@@H]2NC(=O)[C@@H](Cc3ccccc3)NC(=O)[C@H](CC(=O)O)NC(=O)CNC(=O)[C@H](CCCNC(=N)N)NC2=O)C(=O)NCC(=O)NCC(=O)NCC(=O)NCCCC[C@@H]2NC(=O)[C@@H](Cc3ccccc3)NC(=O)[C@H](CC(=O)O)NC(=O)CNC(=O)[C@H](CCCNC(=N)N)NC2=O)C(=O)NCC(=O)NCC(=O)NCC(=O)NCCCC[C@@H]2NC(=O)[C@@H](Cc3ccccc3)NC(=O)[C@H](CC(=O)O)NC(=O)CNC(=O)[C@H](CCCNC(=N)N)NC2=O)NC(=O)[C@@H](Cc2ccccc2)NC(=O)[C@H](CC(=O)O)NC(=O)CNC1=O [indium-111 labelled]
tissue uptake (female athymic nude mice, bone; intravenous, 3 µCi, 1 h, U-87 MG glioma xenograft): 1.76 ± 0.26 %ID/g

CSCC[C@H](NC(=O)[C@H](CC(C)C)NC(=O)[C@H](Cc1c[nH]cn1)NC(=O)CNC(=O)[C@@H](NC(=O)[C@H](C)NC(=O)[C@H](Cc1c[nH]c2ccccc12)NC(=O)[C@H](CCC(N)=O)NC(=O)CCCCNC(=O)CSCCSCCP(CO)CO)C(C)C)C(N)=O [technetium-99m labelled]
tissue uptake (female CF-1 mouse, whole blood; intravenous, 1 h, blood volume as 6.5% body weight): 1.9 ± 2.5 %ID

CSCC[C@H](NC(=O)[C@H](CC(C)C)NC(=O)[C@H](Cc1c[nH]cn1)NC(=O)CNC(=O)[C@@H](NC(=O)[C@H](C)NC(=O)[C@H](Cc1c[nH]c2ccccc12)NC(=O)[C@H](CCC(N)=O)NC(=O)CCCCCNC(=O)CNC(=O)CNC(=O)CNC(=O)CSC(C)=O)C(C)C)C(N)=O [technetium-99m labelled]
tissue uptake (nude mouse, PC-3 xenograft, blood; 30 min): 0.72 ± 0.15 %ID/g

C[C@@H](O)[C@H](NC(=O)[C@@H]1CSSC[C@H](NC(=O)[C@@H](Cc2ccccc2)NC(=O)CN2CCCN3CCN(CCCN(CP(=O)(O)O)CC3)CC2)C(=O)N[C@@H](Cc2ccc(O)cc2)C(=O)N[C@H](Cc2c[nH]c3ccccc23)C(=O)N[C@@H](CCCCN)C(=O)N[C@@H]([C@@H](C)O)C(=O)N1)C(=O)O [copper-64 labelled]
tissue uptake (Lewis rat, male, tumour-bearing, tumor; injection, 4 h, with: Y3-TATE 200 µg co-injected): 0.7 ± 0.09 %ID/g
